Published values of several laboratories.
A part holds a random share of what one study measured. ± marks the error that the study gave.

Series 1 — method: immunohistochemistry; item: symmetric dimethylarginine; host: human cancer patients; medium: tumour biopsy; reference: before treatment; reading: direction not given
Compound: COc1ccc(-c2c(Nc3ccccn3)[nH]c3c(C4=CCCCC4)c(-c4ccccc4)nn3c2=O)cc1
The “SDMA H-score change” was -80.9% (100 mg QD).
The “SDMA H-score change” was -11.6 ± 26.6% (400 mg QD).
It gave -98.8% for “SDMA H-score change” (200 mg QD).

Series 2 — target: panel of 300 human kinases; concentration: 0.5 µM; reading: higher = more selective
`CO[C@H]1C[C@@H]2CC[C@@H](C)[C@@](O)(O2)C(=O)C(=O)N2CCCC[C@H]2C(=O)O[C@H]([C@H](C)C[C@@H]2CC[C@@H](O)[C@H](OC)C2)CC(=O)[C@H](C)/C=C(\C)[C@@H](O)[C@@H](OC)C(=O)[C@H](C)C[C@H](C)/C=C/C=C/C=C/1C` gave a Gini score of 0.72.
With `O=C1c2ccccc2-c2nc3nnnn3nc21` the Gini score was 0.54.
The Gini score of `Nc1ccc2ncnc(NCCc3ccc(Oc4ccccc4)cc3)c2c1` is reported as 0.73.
`O=C1NC(=O)c2cc(Nc3ccc(F)cc3)c(Nc3ccc(F)cc3)cc21` gave a Gini score of 0.62.
With `O=C(O)/C=C/c1cc(Br)c(Br)c(Br)c1Br` the Gini score was 0.6.
`COc1cc2nccc(Oc3ccc(NC(=S)NC(=O)c4ccccc4C)cc3)c2cc1OC` has a Gini score of 0.67.
`OCC(O)CCON=C1C(c2c(O)[nH]c3ccccc23)=Nc2ccccc21` (centres unmarked) has a Gini score of 0.48.

Series 3 — host: human; medium: microsomes or S9; concentration: 2 µM; time: 0.5 h
The remaining compound of `CN1CCC(N(C)C(=O)c2cc3cc(Br)cc(Br)c3o2)CC1` is reported as 69.5%.
`COc1ccccc1N1C(=N)C(C)(C(C)C)NC1=O` (centres unmarked) gave a remaining compound of 94.3%.
`COc1ccc(-c2[nH]ncc2C(=O)Nc2n[nH]c3cc(Br)ccc23)cc1` has a remaining compound of 54.4%.
The remaining compound of `O=C(NCCCN1CCCC1=O)C1CCCN1c1nnc(N2CCCC2=O)s1` (centres unmarked) is reported as > 99%.
`O=c1[nH]c2cc(-c3noc(-c4ccc(F)c(F)c4)n3)ccc2n1C1CCCC1` has a remaining compound of > 99.9%.
The remaining compound of `Cc1cc(C)c(-c2n[nH]cc2-c2nc3ccccc3s2)c(O)c1` is reported as 45.9%.
With `Cn1ccc(-c2cnc(-c3cc(F)ccc3[N+](=O)[O-])nc2)n1` the remaining compound was > 99.9%.
`CCOC1CC(NC(=O)c2nnn(C3CCNCC3)c2C)C12CCC2` (centres unmarked) gave a remaining compound of 0.643%.
With `CCOc1cc(=O)n2c(c1C(=O)NCC1CCCO1)CCCCC2` (centres unmarked) the remaining compound was 91.7%.

Mixed results
`CCC[C@H]1NC(=O)CSC[C@@H](C(=O)OCC)N(C)C(=O)[C@H](CC(C)C)NC(=O)[C@H](C)N(C)C(=O)[C@@H](CC(C)C)NC(=O)[C@H](C)N(C)C(=O)[C@@H]2CCCN2C(=O)[C@H](CC(C)C)NC(=O)CN(CCC)C1=O` gave a logD of 0.832 (hydrocarbon/water).

For quick reference, copied from above (series 3):
`COc1ccccc1N1C(=N)C(C)(C(C)C)NC1=O` (centres unmarked) gave a remaining compound of 94.3%.
`CCOC1CC(NC(=O)c2nnn(C3CCNCC3)c2C)C12CCC2` (centres unmarked) gave a remaining compound of 0.643%.
With `CCOc1cc(=O)n2c(c1C(=O)NCC1CCCO1)CCCCC2` (centres unmarked) the remaining compound was 91.7%.
